Results of several laboratories.
Compare with care: the assays were run in different laboratories. Numbers after ± are the reported error.
AKR1C2: Aldo-keto reductase family 1 member C2 (AKR1C2, Homo sapiens, UniProt P52895)
Chain of UniProt P52895 (whole entry, looked up): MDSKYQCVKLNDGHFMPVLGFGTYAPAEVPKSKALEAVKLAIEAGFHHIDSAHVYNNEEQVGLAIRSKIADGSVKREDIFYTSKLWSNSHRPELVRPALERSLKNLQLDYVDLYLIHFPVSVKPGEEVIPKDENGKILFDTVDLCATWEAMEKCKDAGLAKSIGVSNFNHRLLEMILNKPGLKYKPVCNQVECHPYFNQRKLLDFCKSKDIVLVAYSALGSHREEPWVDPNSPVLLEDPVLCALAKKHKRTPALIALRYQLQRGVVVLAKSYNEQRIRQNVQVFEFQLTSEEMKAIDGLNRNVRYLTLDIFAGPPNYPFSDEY
Chain of UniProt P08246 (whole entry, looked up): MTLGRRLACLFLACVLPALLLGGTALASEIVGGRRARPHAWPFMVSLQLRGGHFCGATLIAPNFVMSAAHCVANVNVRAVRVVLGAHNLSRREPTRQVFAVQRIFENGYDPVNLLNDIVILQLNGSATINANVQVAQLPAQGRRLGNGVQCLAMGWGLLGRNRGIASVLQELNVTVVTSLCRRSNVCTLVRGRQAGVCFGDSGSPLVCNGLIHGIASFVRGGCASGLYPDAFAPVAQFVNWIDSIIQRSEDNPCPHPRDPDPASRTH
Chain of UniProt P17948 (whole entry, looked up): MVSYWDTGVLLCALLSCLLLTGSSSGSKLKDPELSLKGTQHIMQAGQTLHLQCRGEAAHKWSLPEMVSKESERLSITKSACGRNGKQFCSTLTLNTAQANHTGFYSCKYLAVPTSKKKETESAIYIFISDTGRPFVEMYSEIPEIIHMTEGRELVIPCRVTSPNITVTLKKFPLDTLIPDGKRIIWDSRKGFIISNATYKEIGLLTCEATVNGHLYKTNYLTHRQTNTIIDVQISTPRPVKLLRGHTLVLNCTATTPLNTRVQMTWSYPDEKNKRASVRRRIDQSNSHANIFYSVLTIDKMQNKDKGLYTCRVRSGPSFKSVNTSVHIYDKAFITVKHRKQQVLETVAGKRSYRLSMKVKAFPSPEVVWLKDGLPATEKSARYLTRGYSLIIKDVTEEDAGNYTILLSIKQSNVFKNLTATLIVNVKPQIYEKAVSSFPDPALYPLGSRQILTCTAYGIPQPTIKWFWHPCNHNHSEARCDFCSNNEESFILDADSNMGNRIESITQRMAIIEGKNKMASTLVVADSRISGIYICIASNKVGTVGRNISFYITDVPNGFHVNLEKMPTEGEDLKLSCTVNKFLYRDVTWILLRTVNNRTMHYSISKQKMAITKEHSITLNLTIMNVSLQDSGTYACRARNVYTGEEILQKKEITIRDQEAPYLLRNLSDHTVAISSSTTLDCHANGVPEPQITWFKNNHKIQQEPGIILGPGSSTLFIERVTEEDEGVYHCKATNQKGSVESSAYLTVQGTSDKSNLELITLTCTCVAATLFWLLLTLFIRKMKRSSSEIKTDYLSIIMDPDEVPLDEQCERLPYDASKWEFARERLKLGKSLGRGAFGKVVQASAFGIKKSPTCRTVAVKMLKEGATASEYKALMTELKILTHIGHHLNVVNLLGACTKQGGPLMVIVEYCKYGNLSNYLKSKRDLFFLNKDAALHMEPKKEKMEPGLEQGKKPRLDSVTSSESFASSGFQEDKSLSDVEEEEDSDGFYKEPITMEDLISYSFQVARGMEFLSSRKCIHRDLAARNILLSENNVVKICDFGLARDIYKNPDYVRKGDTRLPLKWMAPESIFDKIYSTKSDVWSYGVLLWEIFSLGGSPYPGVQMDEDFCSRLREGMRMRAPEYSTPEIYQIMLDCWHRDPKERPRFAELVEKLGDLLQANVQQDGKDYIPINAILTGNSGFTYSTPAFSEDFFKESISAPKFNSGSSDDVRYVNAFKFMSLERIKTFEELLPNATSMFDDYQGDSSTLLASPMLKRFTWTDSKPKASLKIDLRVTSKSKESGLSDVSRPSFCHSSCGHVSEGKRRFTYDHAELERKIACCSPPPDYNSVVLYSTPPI
Chain of UniProt O15146 (whole entry, looked up): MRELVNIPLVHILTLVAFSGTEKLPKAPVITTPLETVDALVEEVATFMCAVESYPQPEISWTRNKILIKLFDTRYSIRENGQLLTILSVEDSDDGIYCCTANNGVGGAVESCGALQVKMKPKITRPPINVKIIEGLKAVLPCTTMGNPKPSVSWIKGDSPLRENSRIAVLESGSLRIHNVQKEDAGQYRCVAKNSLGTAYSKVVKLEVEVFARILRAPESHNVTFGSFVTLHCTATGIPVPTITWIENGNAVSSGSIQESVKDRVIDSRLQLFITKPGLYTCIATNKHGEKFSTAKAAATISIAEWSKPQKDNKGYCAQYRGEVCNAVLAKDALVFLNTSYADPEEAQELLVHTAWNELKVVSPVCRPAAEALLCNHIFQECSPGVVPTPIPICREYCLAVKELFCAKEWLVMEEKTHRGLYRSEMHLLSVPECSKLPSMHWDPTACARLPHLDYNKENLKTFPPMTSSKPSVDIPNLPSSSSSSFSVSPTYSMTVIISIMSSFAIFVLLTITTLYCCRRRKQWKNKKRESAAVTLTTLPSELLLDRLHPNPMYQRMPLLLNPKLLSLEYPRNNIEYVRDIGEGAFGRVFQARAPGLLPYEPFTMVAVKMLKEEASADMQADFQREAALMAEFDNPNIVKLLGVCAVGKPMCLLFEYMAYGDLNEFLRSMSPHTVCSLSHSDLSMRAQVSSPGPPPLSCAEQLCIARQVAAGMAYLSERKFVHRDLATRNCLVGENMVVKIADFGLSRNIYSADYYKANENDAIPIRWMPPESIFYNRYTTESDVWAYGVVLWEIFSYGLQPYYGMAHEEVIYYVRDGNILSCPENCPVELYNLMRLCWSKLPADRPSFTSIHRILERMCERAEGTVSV
Chain of UniProt P00591 (whole entry, looked up): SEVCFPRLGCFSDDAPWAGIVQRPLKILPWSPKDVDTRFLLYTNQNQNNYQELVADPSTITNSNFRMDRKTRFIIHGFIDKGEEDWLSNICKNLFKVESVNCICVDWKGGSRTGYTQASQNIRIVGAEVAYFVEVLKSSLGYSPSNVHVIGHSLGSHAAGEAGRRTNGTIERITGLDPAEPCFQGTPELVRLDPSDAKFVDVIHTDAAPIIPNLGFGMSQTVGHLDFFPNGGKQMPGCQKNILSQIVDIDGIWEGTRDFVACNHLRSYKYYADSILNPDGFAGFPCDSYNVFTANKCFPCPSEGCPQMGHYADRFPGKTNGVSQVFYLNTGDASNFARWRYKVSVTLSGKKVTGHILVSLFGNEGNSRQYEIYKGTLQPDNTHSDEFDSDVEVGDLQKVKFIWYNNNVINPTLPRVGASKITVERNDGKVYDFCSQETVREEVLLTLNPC
Chain of UniProt P11802 (whole entry, looked up): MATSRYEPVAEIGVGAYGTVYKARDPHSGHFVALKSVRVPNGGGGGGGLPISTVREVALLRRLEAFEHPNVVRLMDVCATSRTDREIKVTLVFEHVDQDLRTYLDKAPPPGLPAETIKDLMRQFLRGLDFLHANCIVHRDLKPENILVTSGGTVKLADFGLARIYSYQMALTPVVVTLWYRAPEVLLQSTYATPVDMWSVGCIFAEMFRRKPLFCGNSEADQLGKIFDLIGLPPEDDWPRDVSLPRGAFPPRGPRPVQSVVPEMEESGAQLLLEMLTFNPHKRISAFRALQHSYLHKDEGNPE
Chain of UniProt P16050 (whole entry, looked up): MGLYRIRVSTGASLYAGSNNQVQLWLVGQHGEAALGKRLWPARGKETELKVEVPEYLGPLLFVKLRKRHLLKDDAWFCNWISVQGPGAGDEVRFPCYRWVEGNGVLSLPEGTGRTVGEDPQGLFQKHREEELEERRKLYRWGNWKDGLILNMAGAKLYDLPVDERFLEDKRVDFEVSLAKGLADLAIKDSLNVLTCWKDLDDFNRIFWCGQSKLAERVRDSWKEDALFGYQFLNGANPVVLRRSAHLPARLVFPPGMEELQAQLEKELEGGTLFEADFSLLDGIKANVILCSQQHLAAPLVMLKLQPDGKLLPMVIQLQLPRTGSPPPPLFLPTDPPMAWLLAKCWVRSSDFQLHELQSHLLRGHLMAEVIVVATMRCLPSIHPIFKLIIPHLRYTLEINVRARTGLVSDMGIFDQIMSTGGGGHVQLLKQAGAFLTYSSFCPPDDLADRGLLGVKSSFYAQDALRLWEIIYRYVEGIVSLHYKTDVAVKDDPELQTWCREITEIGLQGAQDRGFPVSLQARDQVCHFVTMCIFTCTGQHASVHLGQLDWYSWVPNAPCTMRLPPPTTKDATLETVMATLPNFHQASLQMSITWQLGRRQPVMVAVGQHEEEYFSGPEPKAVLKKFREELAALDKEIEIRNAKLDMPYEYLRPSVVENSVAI
Chain of UniProt F1QCV2 (whole entry, looked up): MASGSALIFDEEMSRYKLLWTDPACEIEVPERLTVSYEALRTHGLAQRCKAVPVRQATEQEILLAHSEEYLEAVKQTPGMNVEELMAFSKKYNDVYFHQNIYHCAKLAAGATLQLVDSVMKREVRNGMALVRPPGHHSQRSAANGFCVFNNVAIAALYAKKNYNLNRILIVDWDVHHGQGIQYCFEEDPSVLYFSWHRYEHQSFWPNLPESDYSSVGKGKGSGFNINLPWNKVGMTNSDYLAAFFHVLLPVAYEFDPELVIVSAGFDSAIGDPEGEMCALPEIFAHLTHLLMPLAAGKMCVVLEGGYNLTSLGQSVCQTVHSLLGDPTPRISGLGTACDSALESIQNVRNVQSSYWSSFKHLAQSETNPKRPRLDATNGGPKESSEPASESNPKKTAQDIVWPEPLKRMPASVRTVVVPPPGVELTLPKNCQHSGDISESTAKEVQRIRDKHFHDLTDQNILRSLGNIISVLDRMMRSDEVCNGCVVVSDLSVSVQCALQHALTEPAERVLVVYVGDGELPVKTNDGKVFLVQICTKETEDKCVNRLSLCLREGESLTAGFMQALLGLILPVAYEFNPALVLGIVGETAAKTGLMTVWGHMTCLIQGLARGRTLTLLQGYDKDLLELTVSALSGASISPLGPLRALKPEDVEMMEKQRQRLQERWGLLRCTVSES

CC(C)Cn1cc(-c2nc(Nc3ccc(OCCCCCCC(=O)NO)cc3)ncc2F)nn1 — inhibition (Cyclin-dependent kinase 4, with cyclin D3 (CDK4, Homo sapiens, UniProt P11802); enzyme activity, inhibitor, TR-FRET; 50 nM): 5.13%
CC[C@H]1[C@@H](O)[C@@H]2[C@H](CC[C@]3(C)[C@@H]([C@H](C)CCOS(=O)(=O)[O-])CC[C@@H]23)[C@@]2(C)CC[C@@H](O)C[C@@H]12.[Na+] — plasma triglycerides (ob/ob NASH mice, plasma; oral, 3 mg/kg once daily, 8 wk): 0.6 mmol/L
C#Cc1cccc(Nc2ncnc3[nH]c4cc(Br)ccc4c23)c1 — inhibition (PTK6 (Homo sapiens, UniProt Q13882); enzyme activity, inhibitor, ADP detection; 2 µM): 19.3%
COc1cc(C(=O)NC2CCC(N3CCN(CC4CCC5(CCCC5)C4)CC3)CC2)c(F)cc1Nc1ncc2c(n1)N(C1CCCC1(F)F)CC(F)(F)C(=O)N2C (stereo not shown) — inhibition (MUSK (Homo sapiens, UniProt O15146); cell-free assay, TR-FRET; 10 µM): 0.94%
CC[C@H](C)[C@H](NC(=O)CNC(=O)[C@H](CCCCNC(C)=O)NC(=O)[C@H](Cc1ccc(O)cc1)NC(=O)[C@H](C)NC(=O)[C@H](CC(C)C)NC(=O)[C@H](CCC(N)=O)NC(=O)[C@H](Cc1ccc(O)cc1)NC(=O)[C@H](CC(C)C)NC(=O)[C@H](CCC(=O)O)NC(=O)[C@H](CCSC)NC(=O)[C@H](Cc1c[nH]c2ccccc12)NC(=O)[C@@H](NC(=O)[C@H](CC(C)C)NC(=O)[C@H](CCCCNC(=O)CCc1cn(CCOCCOCCOCCOCCOCCOCCOCCOCCNC(=O)CCC(=O)NCc2ccc(CN3C(=O)[C@H]4CC(=O)N[C@@H](CCCNC(=N)N)C(=O)NCC(=O)N[C@@H](CC(=O)O)C(=O)NC[C@H]3C(=O)N4)cc2)nn1)NC(C)=O)[C@@H](C)O)C(N)=O — inhibition (Vascular endothelial growth factor receptor 1, extracellular domain D1–D7 (FLT1, Homo sapiens, UniProt P17948); VEGF165 binding, solid-phase competition binding; 500 µM, together with: biotinylated VEGF165): 57 ± 10%
CC[C@H](C)[C@H](NC(=O)[C@H](CCCNC(=N)N)NC(=O)[C@H](CCCCN)NC(=O)[C@@H]1CCCN1C(=O)[C@@H]1CCCN1CCCN(CC[C@H](N)C(=O)O)C[C@H]1O[C@@H](n2cnc3c(N)ncnc32)[C@H](O)[C@@H]1O)C(=O)N[C@@H](C)C(N)=O — inhibition (EHMT2 (Homo sapiens, UniProt Q96KQ7); enzyme activity, inhibitor; 33 µM): < 20%
CS(C)=O.CS(C)=O.[Cl][Cu][Cl].c1ccc(-c2nnc(-c3ccc4c(c3)OCO4)[nH]2)nc1 — activated caspase-3 cells (T24; FITC-DEVD-FMK flow cytometry; 5.3 µM, 24 h): 31.5%
COc1cc2c(cc1I)[C@H]1CC[C@@]3(C)C(=O)CC[C@H]3[C@@H]1CC2 — inhibition (AKR1C2; enzyme activity, inhibitor, absorbance; 100 µM, pH 9): 5%
O=C(NO)c1coc(-c2ccc3ccccc3c2)n1 — inhibition (hdac10 (Danio rerio, UniProt F1QCV2); 1 µM): 34%
COc1ccc2c(c1Cl)CC[C@@H]1[C@@H]2CC[C@@]2(C)C(=O)CC[C@@H]12 — inhibition (AKR1C2; enzyme activity, inhibitor, absorbance; 10 µM, pH 9): 50%
O=Cc1c(O)ccc2ccccc12 — log2 fold change (HUVEC; RNA sequencing, measured: LXN; 75 µM, 24 h; baseline: DMSO): -2.89
N#Cc1c(Cl)ccc(Oc2ccc(Cl)cc2Cl)c1O — inhibition (ENR (Toxoplasma gondii, UniProt Q6UCJ9); enzyme activity, inhibitor; 1 µM): 95%
O=C(O[C@H]1Cc2c(O)cc(O)cc2O[C@@H]1c1cc(O)c(O)c(O)c1)c1cc(O)c(O)c(O)c1 — inhibition (PNLIP (Sus scrofa, UniProt P00591); enzyme activity, inhibitor; 10 µM): 75.8%
CC(=O)OCOC(=O)CN(CC(=O)OCOC(C)=O)Cc1c(OC(C)=O)ccc2c1Oc1c(ccc(OC(C)=O)c1CN(CC(=O)OCOC(C)=O)CC(=O)OCOC(C)=O)C21OC(=O)c2ccccc21 — combination index (MDA-MB-468; together with: rucaparib): < 1
CN1CCN(CC(=O)N2N=C3/C(=C/c4ccccc4)CCCC3C2c2ccccc2)CC1 (mixture of isomers) — maximal activation (ALOX15 (Homo sapiens, UniProt P16050); enzyme activity, activator; pH 7.4, 1% DMSO, stirring, together with: arachidonic acid 50 µM): 150%
OB(O)c1ccccc1 — inhibition (Neutrophil elastase (ELANE, Homo sapiens, UniProt P08246); enzyme activity, inhibitor, fluorimetric; up to 100 µM): inactive

A few entries again:
C#Cc1cccc(Nc2ncnc3[nH]c4cc(Br)ccc4c23)c1 — inhibition (PTK6 (Homo sapiens, UniProt Q13882); enzyme activity, inhibitor, ADP detection; 2 µM): 19.3%
COc1cc(C(=O)NC2CCC(N3CCN(CC4CCC5(CCCC5)C4)CC3)CC2)c(F)cc1Nc1ncc2c(n1)N(C1CCCC1(F)F)CC(F)(F)C(=O)N2C (stereo not shown) — inhibition (MUSK (Homo sapiens, UniProt O15146); cell-free assay, TR-FRET; 10 µM): 0.94%
CC[C@H](C)[C@H](NC(=O)CNC(=O)[C@H](CCCCNC(C)=O)NC(=O)[C@H](Cc1ccc(O)cc1)NC(=O)[C@H](C)NC(=O)[C@H](CC(C)C)NC(=O)[C@H](CCC(N)=O)NC(=O)[C@H](Cc1ccc(O)cc1)NC(=O)[C@H](CC(C)C)NC(=O)[C@H](CCC(=O)O)NC(=O)[C@H](CCSC)NC(=O)[C@H](Cc1c[nH]c2ccccc12)NC(=O)[C@@H](NC(=O)[C@H](CC(C)C)NC(=O)[C@H](CCCCNC(=O)CCc1cn(CCOCCOCCOCCOCCOCCOCCOCCOCCNC(=O)CCC(=O)NCc2ccc(CN3C(=O)[C@H]4CC(=O)N[C@@H](CCCNC(=N)N)C(=O)NCC(=O)N[C@@H](CC(=O)O)C(=O)NC[C@H]3C(=O)N4)cc2)nn1)NC(C)=O)[C@@H](C)O)C(N)=O — inhibition (Vascular endothelial growth factor receptor 1, extracellular domain D1–D7 (FLT1, Homo sapiens, UniProt P17948); VEGF165 binding, solid-phase competition binding; 500 µM, together with: biotinylated VEGF165): 57 ± 10%
